Published values gathered from unrelated publications.
Each line is one published result; not all experiments were run side by side. ± marks the error that the study gave.
Cell line: MCF-10A

| Structure (SMILES) | observed | technique | time | notes | measurement | value |
| --- | --- | --- | --- | --- | --- | --- |
| C[C@H](NC(=O)[C@H](CCCNC(=N)N)NC(=O)[C@H](CCCNC(=N)N)NC(=O)[C@@H]1CCCN1C(=O)CNC(=O)[C@H](CCCNC(=N)N)NC(=O)[C@H](CCCNC(=N)N)NC(=O)CN)C(=O)N[C@@H](CC(N)=O)C(=O)N[C@@H](CCC(N)=O)C(=O)N[C@@H](CC(N)=O)C(=O)NCC(=O)N[C@H](C(=O)N[C@@H](CCCNC(=N)N)C(=O)N[C@@H](CCCNC(=N)N)C(=O)N[C@@H](CCCNC(=N)N)C(=O)N[C@@H](CCCNC(=N)N)C(=O)N[C@@H](CCCNC(=N)N)C(=O)N[C@@H](CCCNC(=N)N)C(=O)N[C@H](C(N)=O)[C@@H](C)O)[C@@H](C)O | cell viability | CellTiter-Blue | 24 h | serum-free medium | IC50 | > 100 µM |
| [Cl][Au-][P+](c1ccccc1)(c1ccccc1)c1cc[cH-]c1.[Cl][Au-][P+](c1ccccc1)(c1ccccc1)c1cc[cH-]c1.[Cl][Ti+2][Cl] | cell growth or viability | XTT | – | – | IC50 | 9.64 µM |
| N=C(N)NCCC[C@H](NC(=O)[C@H](CCCNC(=N)N)NC(=O)[C@@H]1CCCN1C(=O)[C@H](CCCNC(=N)N)NC(=O)[C@H](CCCNC(=N)N)NC(=O)[C@H](CCCNC(=N)N)NC(=O)[C@H](Cc1c[nH]c2ccccc12)NC(=O)[C@H](CCCNC(=N)N)NC(=O)[C@H](CCCNC(=N)N)NC(=O)[C@H](CCCNC(=N)N)NC(=O)[C@H](CCCNC(=N)N)NC(=O)[C@H](CCCNC(=N)N)NC(=O)[C@H](Cc1c[nH]c2ccccc12)NC(=O)[C@H](CCCNC(=N)N)NC(=O)[C@H](CCCNC(=N)N)NC(=O)[C@H](Cc1ccc(O)cc1)NC(=O)[C@H](CCCNC(=N)N)NC(=O)[C@H](CCCNC(=N)N)NC(=O)[C@H](CCCNC(=N)N)NC(=O)[C@@H](N)Cc1c[nH]c2ccccc12)C(N)=O | cell viability | CellTiter-Blue | 24 h | serum-free medium | IC50 | 16.7 ± 1.3 µM |
| C#CCN[C@@H]1C=C[C@]2(O[C@H]([C@@H](CC)C(=O)[C@@H](C)[C@@H](O)[C@H](C)[C@@H]3O[C@@H]([C@@H](CC)C(=O)O)CC[C@@H]3C)[C@@H](C)C[C@H]2C)O[C@@]12CC[C@@](C)([C@H]1CC[C@](O)(CC)[C@H](C)O1)O2 | cell growth or viability | resazurin | 72 h | – | IC50 | 0.12 µM |
| CC(=O)N1CCCC[C@H]1C(=O)NC(C)(C)C(=O)N1CCCC[C@H]1C(=O)NC(C)(C)C(=O)NC(C)(C)C(=O)N[C@@H](CC(C)C)C(=O)NCCC(=O)N[C@H](C)C(=O)NC(C)(C)C(=O)NC(C)(C)C(=O)N1CCCC[C@H]1C(=O)NC(C)(C)C(=O)NCC(=O)N[C@@H](CC(C)C)C(=O)NC(C)(C)C(=O)N[C@@H](CC(C)C)C[N+]1=C2CCCN2CCC1 | cell growth or viability | SRB | 48 h | – | GI50 | 0.583 µM |
| C=CC[P](c1ccccc1)(c1ccccc1)[Pt]([Cl])([Cl])[P](CC=C)(c1ccccc1)c1ccccc1 | cell growth or viability | MTT | – | – | IC50 | 68.7 µM |
| O=C(O)[c-]1cccc1.O=C(Oc1ccc(-n2cccc2)cc1)[c-]1cccc1.[Fe+2] | cell growth or viability | MTT | – | – | IC50 | 219 µM |
| CC(=O)N1CCCC[C@H]1C(=O)NC(C)(C)C(=O)N1CCCC[C@H]1C(=O)NC(C)(C)C(=O)NC(C)(C)C(=O)N[C@@H](CC(C)C)C(=O)N[C@H](C)CC(=O)NCC(=O)NC(C)(C)C(=O)NC(C)(C)C(=O)N1CCCC[C@H]1C(=O)NC(C)(C)C(=O)NCC(=O)N[C@@H](CC(C)C)C(=O)NC(C)(C)C(=O)N[C@@H](CC(C)C)C[N+]1=C2CCCN2CCC1 | cell growth or viability | SRB | 48 h | – | GI50 | > 1 µM |
| C=CC[P](c1ccccc1)(c1ccccc1)[Pt]([S]c1ncccn1)([S]c1ncccn1)[P](CC=C)(c1ccccc1)c1ccccc1 | cell growth or viability | MTT | – | – | IC50 | 44.7 µM |

Some of these lines once more:
| Structure (SMILES) | observed | technique | time | notes | measurement | value |
| --- | --- | --- | --- | --- | --- | --- |
| [Cl][Au-][P+](c1ccccc1)(c1ccccc1)c1cc[cH-]c1.[Cl][Au-][P+](c1ccccc1)(c1ccccc1)c1cc[cH-]c1.[Cl][Ti+2][Cl] | cell growth or viability | XTT | – | – | IC50 | 9.64 µM |
